Published values from different studies.
Each line is one published result; not all experiments were run side by side. ± marks the error that the study gave.
CHRM1: Muscarinic acetylcholine receptor M1 (CHRM1, Homo sapiens, UniProt P11229)
UniProt P11229, sequence (whole entry, looked up): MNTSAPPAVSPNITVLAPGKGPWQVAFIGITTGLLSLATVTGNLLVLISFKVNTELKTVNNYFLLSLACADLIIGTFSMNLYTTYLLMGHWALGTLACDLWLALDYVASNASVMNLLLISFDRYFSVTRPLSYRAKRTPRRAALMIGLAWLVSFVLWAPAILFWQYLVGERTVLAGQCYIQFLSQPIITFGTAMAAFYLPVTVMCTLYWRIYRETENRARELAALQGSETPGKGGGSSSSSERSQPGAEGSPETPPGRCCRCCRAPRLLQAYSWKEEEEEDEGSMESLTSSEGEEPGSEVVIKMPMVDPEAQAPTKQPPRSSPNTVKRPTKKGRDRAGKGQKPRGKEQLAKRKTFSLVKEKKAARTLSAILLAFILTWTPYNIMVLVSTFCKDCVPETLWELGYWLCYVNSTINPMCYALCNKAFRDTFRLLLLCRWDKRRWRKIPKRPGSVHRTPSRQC
UGT1A1: UDP-glucuronosyltransferase 1A1 (UGT1A1, Homo sapiens, UniProt P22309)
UniProt P22309, sequence (whole entry, looked up): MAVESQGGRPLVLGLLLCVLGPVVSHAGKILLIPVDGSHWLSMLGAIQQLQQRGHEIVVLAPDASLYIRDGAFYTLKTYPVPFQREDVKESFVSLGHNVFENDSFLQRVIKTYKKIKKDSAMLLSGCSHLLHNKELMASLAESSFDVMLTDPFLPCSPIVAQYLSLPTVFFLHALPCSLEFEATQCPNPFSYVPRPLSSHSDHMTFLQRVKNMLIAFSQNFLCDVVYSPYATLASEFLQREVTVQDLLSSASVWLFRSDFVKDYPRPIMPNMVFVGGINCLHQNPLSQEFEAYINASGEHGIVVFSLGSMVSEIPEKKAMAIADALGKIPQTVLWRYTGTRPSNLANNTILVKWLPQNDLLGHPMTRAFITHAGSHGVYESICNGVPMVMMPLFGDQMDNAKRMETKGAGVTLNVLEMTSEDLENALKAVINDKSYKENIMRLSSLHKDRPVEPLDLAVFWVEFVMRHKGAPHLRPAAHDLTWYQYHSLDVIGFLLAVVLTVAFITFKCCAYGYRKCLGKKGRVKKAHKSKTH
CHRM4: Muscarinic acetylcholine receptor M4 (CHRM4, Homo sapiens, UniProt P08173)
UniProt P08173, sequence (whole entry, looked up): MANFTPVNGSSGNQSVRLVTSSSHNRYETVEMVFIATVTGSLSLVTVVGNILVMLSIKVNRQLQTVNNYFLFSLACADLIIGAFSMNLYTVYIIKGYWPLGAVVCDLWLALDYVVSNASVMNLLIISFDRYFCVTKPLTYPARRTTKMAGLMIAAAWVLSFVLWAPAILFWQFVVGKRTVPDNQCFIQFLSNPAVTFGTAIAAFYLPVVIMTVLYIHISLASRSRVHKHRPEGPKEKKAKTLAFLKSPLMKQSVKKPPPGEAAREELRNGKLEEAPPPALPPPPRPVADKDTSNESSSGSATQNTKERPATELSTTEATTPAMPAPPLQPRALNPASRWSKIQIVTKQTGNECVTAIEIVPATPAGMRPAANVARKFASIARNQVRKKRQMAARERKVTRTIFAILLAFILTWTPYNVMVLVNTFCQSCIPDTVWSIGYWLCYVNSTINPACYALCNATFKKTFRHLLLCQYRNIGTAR
SCN10A: Sodium channel protein type 10 subunit alpha (SCN10A, Homo sapiens, UniProt Q9Y5Y9)
UniProt Q9Y5Y9, sequence (whole entry, looked up): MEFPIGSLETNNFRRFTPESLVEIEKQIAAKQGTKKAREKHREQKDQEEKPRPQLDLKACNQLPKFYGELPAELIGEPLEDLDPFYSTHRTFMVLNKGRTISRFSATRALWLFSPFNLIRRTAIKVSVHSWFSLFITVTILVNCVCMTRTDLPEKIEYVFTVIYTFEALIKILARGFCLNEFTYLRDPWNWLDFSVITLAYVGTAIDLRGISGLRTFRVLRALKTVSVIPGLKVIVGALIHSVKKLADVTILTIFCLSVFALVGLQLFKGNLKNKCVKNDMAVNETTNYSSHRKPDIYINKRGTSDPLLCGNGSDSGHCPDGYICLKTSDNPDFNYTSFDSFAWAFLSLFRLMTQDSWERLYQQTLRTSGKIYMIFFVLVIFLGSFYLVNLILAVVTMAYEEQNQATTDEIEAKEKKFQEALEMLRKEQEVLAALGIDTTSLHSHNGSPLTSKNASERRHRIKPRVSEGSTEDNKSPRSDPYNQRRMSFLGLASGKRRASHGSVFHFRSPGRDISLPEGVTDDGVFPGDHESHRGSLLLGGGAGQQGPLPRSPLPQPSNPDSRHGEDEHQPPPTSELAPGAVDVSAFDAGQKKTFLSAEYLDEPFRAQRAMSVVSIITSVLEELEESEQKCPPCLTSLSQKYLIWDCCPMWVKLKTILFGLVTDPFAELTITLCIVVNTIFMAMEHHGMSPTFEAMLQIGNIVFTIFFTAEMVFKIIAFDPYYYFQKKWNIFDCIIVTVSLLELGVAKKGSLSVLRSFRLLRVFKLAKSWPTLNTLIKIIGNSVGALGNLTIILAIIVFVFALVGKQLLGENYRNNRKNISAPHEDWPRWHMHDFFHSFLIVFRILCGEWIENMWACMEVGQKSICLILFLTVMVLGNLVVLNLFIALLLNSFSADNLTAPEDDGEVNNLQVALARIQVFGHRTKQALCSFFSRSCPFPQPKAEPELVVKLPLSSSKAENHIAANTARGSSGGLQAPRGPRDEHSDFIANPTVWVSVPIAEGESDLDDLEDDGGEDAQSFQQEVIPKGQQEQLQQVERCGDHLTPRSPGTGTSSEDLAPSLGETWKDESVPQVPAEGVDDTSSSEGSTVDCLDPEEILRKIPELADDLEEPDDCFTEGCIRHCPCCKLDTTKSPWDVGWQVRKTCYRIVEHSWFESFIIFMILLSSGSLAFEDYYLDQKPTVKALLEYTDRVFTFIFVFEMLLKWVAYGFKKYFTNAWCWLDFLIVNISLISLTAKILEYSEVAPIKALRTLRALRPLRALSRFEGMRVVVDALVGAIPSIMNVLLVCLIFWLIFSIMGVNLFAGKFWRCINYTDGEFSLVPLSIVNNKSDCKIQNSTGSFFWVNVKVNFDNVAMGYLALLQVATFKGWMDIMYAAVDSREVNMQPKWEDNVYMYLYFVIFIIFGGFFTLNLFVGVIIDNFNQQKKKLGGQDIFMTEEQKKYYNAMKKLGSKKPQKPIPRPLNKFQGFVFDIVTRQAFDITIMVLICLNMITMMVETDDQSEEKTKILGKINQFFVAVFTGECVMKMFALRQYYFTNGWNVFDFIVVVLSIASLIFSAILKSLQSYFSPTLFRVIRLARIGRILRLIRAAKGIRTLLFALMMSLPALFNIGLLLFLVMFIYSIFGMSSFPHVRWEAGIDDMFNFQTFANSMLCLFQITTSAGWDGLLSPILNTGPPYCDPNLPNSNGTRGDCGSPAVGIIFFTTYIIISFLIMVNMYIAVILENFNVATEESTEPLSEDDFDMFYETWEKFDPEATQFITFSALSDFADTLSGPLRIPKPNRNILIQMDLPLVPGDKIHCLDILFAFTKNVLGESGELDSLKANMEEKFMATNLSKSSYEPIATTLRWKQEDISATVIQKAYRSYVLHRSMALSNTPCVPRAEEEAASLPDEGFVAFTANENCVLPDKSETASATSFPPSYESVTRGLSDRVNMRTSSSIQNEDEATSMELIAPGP
T1: c-di-GMP riboswitch (Clostridium acetobutylicum); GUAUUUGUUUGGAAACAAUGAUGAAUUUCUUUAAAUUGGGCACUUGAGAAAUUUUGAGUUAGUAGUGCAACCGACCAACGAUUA
T2: DNA hairpin, hairpin; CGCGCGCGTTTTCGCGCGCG
UniProt P54750, sequence (whole entry, looked up): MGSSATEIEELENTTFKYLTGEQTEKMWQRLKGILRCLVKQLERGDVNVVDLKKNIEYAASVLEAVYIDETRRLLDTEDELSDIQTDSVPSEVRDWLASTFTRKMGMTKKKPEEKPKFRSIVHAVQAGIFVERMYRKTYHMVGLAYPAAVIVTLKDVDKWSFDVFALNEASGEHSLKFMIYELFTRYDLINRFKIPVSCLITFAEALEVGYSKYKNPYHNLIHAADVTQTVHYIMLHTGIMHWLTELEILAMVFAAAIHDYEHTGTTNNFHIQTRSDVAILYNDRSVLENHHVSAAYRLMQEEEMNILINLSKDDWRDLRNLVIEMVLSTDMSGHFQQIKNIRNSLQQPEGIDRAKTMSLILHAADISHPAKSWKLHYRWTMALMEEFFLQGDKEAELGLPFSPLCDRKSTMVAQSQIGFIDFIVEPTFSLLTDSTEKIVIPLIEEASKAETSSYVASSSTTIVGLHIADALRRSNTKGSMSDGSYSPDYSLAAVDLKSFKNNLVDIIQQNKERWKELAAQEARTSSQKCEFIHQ
UniProt P12369, sequence (whole entry, unmodified, looked up): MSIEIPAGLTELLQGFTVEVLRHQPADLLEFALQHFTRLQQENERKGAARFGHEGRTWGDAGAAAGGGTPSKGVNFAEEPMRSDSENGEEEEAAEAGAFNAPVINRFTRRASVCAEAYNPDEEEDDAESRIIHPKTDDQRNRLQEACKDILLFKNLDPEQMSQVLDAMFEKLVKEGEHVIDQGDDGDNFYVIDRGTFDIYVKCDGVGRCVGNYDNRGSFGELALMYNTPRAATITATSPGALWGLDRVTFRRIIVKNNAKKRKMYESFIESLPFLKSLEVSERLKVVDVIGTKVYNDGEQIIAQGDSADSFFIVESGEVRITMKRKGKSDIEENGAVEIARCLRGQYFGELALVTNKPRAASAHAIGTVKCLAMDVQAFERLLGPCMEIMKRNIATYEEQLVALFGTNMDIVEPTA
UniProt P41682, sequence (whole entry, looked up): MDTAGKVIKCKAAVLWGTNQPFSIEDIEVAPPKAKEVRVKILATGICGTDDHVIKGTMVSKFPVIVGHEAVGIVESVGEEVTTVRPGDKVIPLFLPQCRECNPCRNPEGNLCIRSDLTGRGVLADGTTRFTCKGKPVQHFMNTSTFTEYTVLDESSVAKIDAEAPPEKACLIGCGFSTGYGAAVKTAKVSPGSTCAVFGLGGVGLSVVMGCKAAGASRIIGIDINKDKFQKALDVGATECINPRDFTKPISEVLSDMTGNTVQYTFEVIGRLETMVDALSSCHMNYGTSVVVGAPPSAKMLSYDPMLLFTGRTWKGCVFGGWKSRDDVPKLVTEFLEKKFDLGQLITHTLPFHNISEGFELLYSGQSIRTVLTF

| Molecule | target | assay | test system | conditions | scale | measurement | result |
| --- | --- | --- | --- | --- | --- | --- | --- |
| CC(C)n1cc(-c2ccc(COc3ccccc3-c3cc(=O)n(C4CCCCC4O)cn3)cc2)cn1 (stereo not drawn) | CHRM1 | positive allosteric modulator, IP1 accumulation | CHO-M1 cells | 1 µM, 60 min, 37 °C, added: ACh | baseline: ACh alone, higher = stronger potentiation | ΔpEC50 of ACh | 1.56 ± 0.09 log units |
| CC[C@H](C)[C@H](NC(=O)[C@H](CCC(=O)O)NC(=O)[C@@H]1CCCN1C(=O)[C@H](CCCNC(=N)N)NC(C)=O)C(=O)N[C@@H](Cc1c[nH]c2ccccc12)C(=O)N[C@@H](Cc1ccc(O)cc1)C(=O)N[C@@H](C)C(=O)N[C@@H](CCC(N)=O)C(=O)NCC(=O)N[C@@H](CC(C)C)C(=O)N[C@@H](CCCCN)C(=O)N[C@@H](CCCNC(=N)N)C(=O)N[C@@H](Cc1ccccc1)C(=O)NCC(=O)N[C@@H](CC(=O)O)C(=O)N[C@@H](CCC(=O)O)C(=O)N[C@@H](Cc1ccccc1)C(=O)N[C@@H](CC(N)=O)C(=O)N[C@@H](C)C(=O)N[C@@H](Cc1ccc(O)cc1)C(=O)N[C@@H](Cc1ccc(O)cc1)C(=O)N[C@@H](C)C(=O)N[C@@H](CCCNC(=N)N)C(N)=O | Induced myeloid leukemia cell differentiation protein Mcl-1 (MCL1, Homo sapiens, UniProt Q07820) | binding, fluorescence polarization competition | – | 500 nM protein, added: 10 nM fluorescent Hrk-BH3 | no competition up to this value | highest concentration without competition | > 10 µM |
| CSc1nc2c([nH]1)c(=S)n(C)c(=S)n2C | Progesterone receptor (PGR, Homo sapiens, UniProt P06401) | reporter gene, antagonist, MMTV-luciferase | T47D/A1-2 | 10 µM, 24 h, added: 5 nM progesterone | baseline: maximal activity | remaining activity | 107% |
| Nc1nc2c(ccn2[C@@H]2O[C@@H]3COP(=O)(O)O[C@H]4[C@@H](O)[C@H](n5ccc6c(=O)[nH]c(N)nc65)O[C@@H]4COP(=O)(O)O[C@H]3[C@H]2O)c(=O)[nH]1 | T1, c-di-GMP riboswitch (Clostridium acetobutylicum) | competitor, competition gel-shift | – | 4-24 h, pH 6.8, 22 °C, added: radiolabelled c-di-GMP | – | Kd | 3.5 µM |
| CC(C)(C)NC(=O)Nc1ncnc2c1ncn2[C@@H]1O[C@@H]2COP(=O)(O)O[C@H]2[C@H]1O | cAMP-dependent protein kinase type II-beta regulatory subunit, holoenzyme with catalytic subunit (Prkar2b, Rattus norvegicus, UniProt P12369, S112A) | PKA holoenzyme activation, activator, fluorescence anisotropy | – | – | baseline: RIIβ over RIα, higher = RIIβ-selective | selectivity ratio | 4.9 |
| O=C(O)[C@H]1O[C@@H](O[C@H]2c3cc4ccc5cccc6c7ccccc7c(c3C=C[C@@H]2O)c4c56)[C@H](O)[C@@H](O)[C@@H]1O (relative stereo) | UGT1A1 | glucuronidation, substrate | UGT-expressing HEK293 homogenate | normalized to UGT expression | – | kcat | 0.00733 ± 0.000833 s⁻¹ |
| c1cc(Nc2ccc(NC3=NCCN3)cc2)ccc1NC1=NCCN1 | T2, DNA hairpin, hairpin | SPR | – | pH 6.25, 25 °C, Na+ 100 mM, too weak to fit | – | binding | binds weakly |
| Brc1cccc2cc[nH]c12 | Dehaloperoxidase B, ferric (Amphitrite ornata, UniProt Q9NAV7) | substrate, HPLC | 5% methanol | 5 min, pH 7, 25 °C, enzyme 10 µM, added: H2O2 500 µM | – | conversion | 46.1% |
| cardiac troponin I R21C | F1FO-ATP synthase (rat heart) | ELISA | – | concentration not given | – | binding | no binding |
| Oc1cc2c(cc1O)[C@@H]1c3ccc(O)c(O)c3OC[C@]1(O)C2 | Lysine-specific demethylase 4E (KDM4E, Homo sapiens, UniProt B2RXH2) | inhibitor, FDH-coupled | – | – | baseline: 20 µM over 2.5 µM ferrous ammonium sulfate | IC50 ratio | 8.9 |
| CC(C)=CCC/C(C)=C/CC/C(C)=C/CC/C(C)=C/CO | All-trans-retinol dehydrogenase [NAD(+)] ADH7 (Adh7, Rattus norvegicus, UniProt P41682) | substrate | – | 50 µM, pH 7.4, added: 2 mM NAD+ | – | dehydrogenase activity | 3.3 U/mg |
| COc1ccc(C)c2sc(NC(=O)NCc3ccncc3)nc12 | CHRM4 | calcium mobilization, positive allosteric modulator | CHO expressing hM4 and Gqi5 | concentration not given, added: acetylcholine EC20 | – | activity | inactive |
| CCCCCCCCCCCCCCCC(=O)N[C@@H](CCC(=O)NCCCC[C@H](NC(=O)[C@H](C)NC(=O)[C@H](Cc1ccc(O)cc1)NC(=O)[C@H](CCC(N)=O)NC(=O)[C@H](C)NC(=O)[C@H](CCSC)NC(=O)[C@H](CCC(N)=O)NC(=O)[C@H](CCC(=O)O)NC(=O)[C@@H]1CCCN1C(=O)[C@@H](NC(=O)[C@H](C)NC(=O)[C@H](CC(N)=O)NC(=O)[C@H](CC(=O)O)NC(=O)CNC(=O)[C@@H]1CCCN1C(=O)[C@H](Cc1ccc(O)cc1)NC(=O)[C@@H](NC(=O)[C@@H]1CCCN1C(=O)[C@H](CCC(=O)O)NC(=O)[C@H](CC(C)C)NC(=O)[C@@H]1CCCN1C(=O)[C@H](C)NC(=O)c1ccc2c(c1)C(=O)OC21c2ccc(O)cc2Oc2cc(O)ccc21)C(C)C)[C@@H](C)O)C(=O)N[C@@H](CC(=O)O)C(=O)N[C@@H](CC(C)C)C(=O)N[C@@H](CCCNC(=N)N)C(=O)N[C@@H](CCCNC(=N)N)C(=O)N[C@@H](Cc1ccc(O)cc1)C(=O)N[C@H](C(=O)N[C@@H](CC(N)=O)C(=O)N[C@@H](CCSC)C(=O)N[C@@H](CC(C)C)C(=O)N[C@H](C(=O)N[C@@H](CCCNC(=N)N)C(=O)N1CCC[C@H]1C(=O)N[C@@H](CCCNC(=N)N)C(=O)N[C@@H](Cc1ccc(O)cc1)C(N)=O)[C@@H](C)O)[C@@H](C)CC)C(=O)O | Neuropeptide Y receptor type 4 (NPY4R, Homo sapiens, UniProt P50391) | radioligand displacement | COS-7 transiently expressing | 1 µM, 90 min, room temperature, added: [3H]-hPP 1 nM | baseline: total binding | specific binding | 84% |
| Fc1ccc2nc(CCC#Cc3ccccn3)cn2c1 | Metabotropic glutamate receptor 5 (Grm5, Rattus norvegicus, UniProt P31424) | calcium mobilization, negative allosteric modulator | – | 30 min, added: glutamate | – | pKB | 7.47 ± 0.07 -log M |
| COCCN(CCOC)C(C)C(=O)Nc1c(C)csc1C(=O)OC (stereo not drawn) | SCN10A | cell membrane chromatography | – | – | higher = stronger binding | capacity factor k′ | 2.6 |
| O=c1cc(-c2ccccc2OCc2ccc([N+](=O)[O-])cc2)ncn1C1CCCCC1O (stereo not drawn) | CHRM1 | positive allosteric modulator, IP1 accumulation | CHO-M1 cells | 10 µM, 60 min, 37 °C, added: ACh | baseline: ACh alone, higher = stronger potentiation | ΔpEC50 of ACh | 1.52 ± 0.22 log units |
| CIKVAVS | human polyclonal IgM rheumatoid factor | binding to mAb II-481 | peptide | combined CDR peptides, serum LOP | – | maximum inhibition | 0% |

| Molecule | target | assay | test system | conditions | scale | measurement | result |
| --- | --- | --- | --- | --- | --- | --- | --- |
| CC(C)(C)OC(=O)Nc1ccc(COc2ccccc2-c2cc(=O)n(C3CCCCC3O)cn2)cc1 (stereo not drawn) | CHRM1 | allosteric agonist, IP1 accumulation | CHO-M1 cells | 10 µM, unit not given | baseline: maximum ACh response | change in baseline activity | 77.8 ± 2.9 |
| Clc1cccc(Nc2nnc(-c3ccccc3)c3ccccc23)c1 | Dual specificity calcium/calmodulin-dependent 3',5'-cyclic nucleotide phosphodiesterase 1A (PDE1A, Homo sapiens, UniProt P54750) | cGMP hydrolysis, inhibitor, fluorescence polarization | recombinant enzyme | up to 100 µM, 30 min preincubation, 30 °C, added: TAMRA-cGMP 25 nM | – | IC50 | inactive |
| CN(C)S(=O)(=O)c1ccc(COc2ccccc2-c2cc(=O)n(C3CCCCC3O)cn2)cc1 (stereo not drawn) | CHRM1 | allosteric agonist, IP1 accumulation | CHO-M1 cells | 1 µM, unit not given | baseline: maximum ACh response | change in baseline activity | 14.4 ± 2.2 |
| O=S(=O)(Nc1ccc(Cl)cc1)C1CC2OC1C(c1ccc(O)cc1)=C2c1ccc(O)cc1 (stereo not drawn) | Estrogen receptor beta (ESR2, Homo sapiens, UniProt Q92731) | reporter gene, antagonist | HepG2 | added: estradiol 10 nM | baseline: E2 response, negative is inverse agonism | efficacy | -15 ± 1% |
| Cc1ccc(C(=O)Nc2ccc3ccccc3c2)o1 | Otop1 (Mus musculus, UniProt Q80VM9, I241A) | whole-cell patch-clamp | – | concentration not given, pH 6.0 | baseline: wild type | effect on acid-evoked current | decreased |
| CCCCCCCCCCCCCCCCOc1ccc(/C=C/C(O)=C/C(=O)/C=C/c2ccc(O)c(OC)c2)cc1OC | Protein kinase C theta type, C1B domain (Mus musculus, UniProt Q02111) | – | buffer | 5×1 µM, 1 h, 25 °C, protein excess | – | emission maximum | 561 nm |
| Cn1cc(-c2ccc(COc3ccccc3-c3cc(=O)n(C4CCCCC4O)cn3)c(F)c2)cn1 (stereo not drawn) | CHRM1 | allosteric agonist, IP1 accumulation | CHO-M1 cells | 10 µM, unit not given | baseline: maximum ACh response | change in baseline activity | 82.9 ± 3.4 |
| CCc1c(C)n(Cc2ccc(-c3ccccc3C(=O)OC)cc2)c2ccccc12 | Peroxisome proliferator-activated receptor gamma (PPARG, Homo sapiens, UniProt P37231) | – | COS-7 | 10 µM, 39 h | – | Emax | 3.16% |
| C=CC(C)(CO)c1cc2cc(-c3ccc(O)cc3O)c(=O)oc2cc1O (stereo not drawn) | quinone reductase | inducer | Hepa1c1c7 | – | – | concentration doubling activity | > 20 µM |
| O=C(O)[C@H]1O[C@@H](Oc2c(-c3ccccc3)oc3ccccc3c2=O)[C@H](O)[C@@H](O)[C@@H]1O | UGT1A1 | glucuronidation, substrate, Supersomes | – | – | – | Vmax | 1.74 ± 0.03 nmol/mg/min |
| CN(C)C(=O)c1ccc(COc2ccccc2-c2cc(=O)n(C3CCCCC3O)cn2)cc1 (stereo not drawn) | CHRM1 | allosteric agonist, IP1 accumulation | CHO-M1 cells | 10 µM, unit not given | baseline: maximum ACh response | change in baseline activity | 38 ± 2.4 |
| C/C1=C2/N[C@H]([C@H](CC(N)=O)[C@@]2(C)CCC(=O)NC[C@@H](C)OP(=O)(O)O[C@H]2[C@@H](O)[C@@H](n3cnc4cc(C)c(C)cc43)O[C@@H]2CO)[C@]2(C)N=C(/C(C)=C3N=C(/C=C4N=C1[C@@H](CCC(N)=O)C\4(C)C)[C@@H](CCC(N)=O)[C@]\3(C)CC(N)=O)[C@@H](CCC(N)=O)[C@]2(C)CC(N)=O.[Co] | cobA (Limosilactobacillus reuteri, UniProt Q50EJ2, F112H) | enzyme activity, substrate | – | anoxic, Ti(III) citrate reduced, added: ATP | – | Km | 2.8 ± 0.4 µM |
| COCCN1CCN(C(C)C(=O)Nc2c(C)csc2C(=O)OC)CC1 (stereo not drawn) | SCN10A | cell membrane chromatography | – | – | higher = stronger binding | capacity factor k′ | 67 |
| Nc1nc2c(ncn2[C@@H]2O[C@H](COP(=O)(O)OP(=O)(O)O[C@H]3O[C@H](CO)[C@@H](O)[C@H](O)[C@@H]3O)[C@@H](O)[C@H]2O)c(=O)[nH]1 | GDP-mannose 4,6-dehydratase (gmd, Pseudomonas aeruginosa, UniProt Q51366) | substrate, capillary electrophoresis | – | 5 min, 37 °C, no MgCl2 | – | substrate inhibition constant | 2.86 ± 1.31 µM |
| COC(=O)c1scc(C)c1NC(=O)C(C)NCCN1CCOCC1 (stereo not drawn) | SCN10A | cell membrane chromatography | – | – | higher = stronger binding | capacity factor k′ | 44 |
| COc1ccc(C)c2sc(NC(=O)c3c(F)cccc3F)nc12 | CHRM4 | calcium mobilization, positive allosteric modulator | CHO expressing hM4 and Gqi5 | concentration not given, added: acetylcholine EC20 | – | activity | inactive |
